Experimental data pooled from the literature.
Numbered parts are unrelated; each lists some results of a single study.

Block 1
Target: Ras GTPase-activating protein-binding protein 1, full length (G3BP1, Homo sapiens, UniProt Q13283)
Sequence of UniProt Q13283 (whole entry, looked up): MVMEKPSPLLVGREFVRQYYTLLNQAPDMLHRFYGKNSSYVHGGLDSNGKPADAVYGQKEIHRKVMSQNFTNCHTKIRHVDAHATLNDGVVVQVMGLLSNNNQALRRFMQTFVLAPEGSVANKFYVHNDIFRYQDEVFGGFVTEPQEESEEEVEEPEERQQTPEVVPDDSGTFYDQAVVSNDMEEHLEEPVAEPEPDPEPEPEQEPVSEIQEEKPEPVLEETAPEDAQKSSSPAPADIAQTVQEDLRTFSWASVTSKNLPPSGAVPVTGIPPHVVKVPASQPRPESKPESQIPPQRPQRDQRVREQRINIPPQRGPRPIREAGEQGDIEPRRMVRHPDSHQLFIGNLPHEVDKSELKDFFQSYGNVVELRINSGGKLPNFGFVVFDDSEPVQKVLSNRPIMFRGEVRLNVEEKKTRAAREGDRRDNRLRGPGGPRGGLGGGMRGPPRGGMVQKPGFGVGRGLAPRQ
Technique: RNA Bind-n-Seq
Molecule type: RNA
Matrix: in vitro
Tested at: 200 nM
Notes: whole 134-nt RNA, ends assumed
Added: 150 mM KCl
Baseline: input library
Reading: higher = stronger binding
Quantity: log2 enrichment
Sequence = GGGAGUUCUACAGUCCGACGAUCGCAGGAAGUAAAAACAAAUGGAAAUGCUUCGGAUAGUGGCAGGGGUGGGGGUUGCUAAGGAAAGGGUGGGAUGGAAAUGGGUAAAGAGUUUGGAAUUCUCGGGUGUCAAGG; value = 1.05
Sequence = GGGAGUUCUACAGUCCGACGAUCUCUAGAUACAGAUGCACGAUUUGGCCAUGGAUCCGACUACUCUCGCCAACAGAACAGAUUUAAUGACUUUGAUCACCGAGAGAGGGGCAGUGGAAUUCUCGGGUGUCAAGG; value = 0.265
Sequence = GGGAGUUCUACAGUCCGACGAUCCUGUGCUACACAUCGUAUGUACCGAAUCAAACCCCCCCAAAUUUUUUUAAAUUUUUUUAAAAAAGUAUUAUGUUACGCCGUUCGGAUCUGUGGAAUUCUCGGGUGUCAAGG; value = -0.0844
Sequence = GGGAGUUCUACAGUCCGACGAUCAGUCCUGUGCUACACAUCGUAUGUACCGAAUCGGGGCCCCGGGCCCCGGGGCCCCGGAAAGUAUUAUGUUACGCCGUUCGGAUCUGCACUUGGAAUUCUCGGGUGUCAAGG; value = 0.374
Sequence = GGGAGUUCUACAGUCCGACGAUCGCUUUGCCUUCACUUAUUUCUUUGCUUUUUAAAAACUAUUUGUAAUGUAAUUUUAAUGCAUUUUUUACAGGCCCAGUAAUGGUUAAAUACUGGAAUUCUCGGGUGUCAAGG; value = -0.665
Sequence = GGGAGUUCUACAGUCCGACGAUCUGGGGUAGACCAGUUCCAUGGCACUGAAUAUGUGUGCUGCCCUCAGACAAAGAUUAUUGGAUCUGUGUCAAAAGAAGAGGAAGAGGAAGAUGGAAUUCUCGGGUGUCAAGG; value = -1.26
Sequence = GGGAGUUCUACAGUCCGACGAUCCCUGUGCUACACAUCGUAUGUACCGAAUCGGCCCCCCGGGGCCCCCCGGGCCCCCCGGGGAAAGUAUUAUGUUACGCCGUUCGGAUCUGCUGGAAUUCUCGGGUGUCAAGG; value = -0.826
Sequence = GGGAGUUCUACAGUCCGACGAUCUGCCAUGGACAAUAUUACCAGGCAGAACCAAUUCUACGAUACCCAAGUCAUCAAACAAGAAAACGAGUCAGGCUACGAGAGGAGACCACUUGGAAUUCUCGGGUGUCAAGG; value = -0.109
Sequence = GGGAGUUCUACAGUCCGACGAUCUGGGUUCUUAUUUCUAACUUGCAUAUGUUUUGUUUUUCAGAAGGAGUUGAGCCUUCCAAGAAGAGGCAGCUUGUAAGUAGAUGAUUAUUAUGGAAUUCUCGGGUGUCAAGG; value = -1.4

Block 2
Target: Transcription factor SOX-2, HMG box (SOX2, Homo sapiens, UniProt P48431, residues 19-118)
Sequence of UniProt P48431 (19-118, looked up): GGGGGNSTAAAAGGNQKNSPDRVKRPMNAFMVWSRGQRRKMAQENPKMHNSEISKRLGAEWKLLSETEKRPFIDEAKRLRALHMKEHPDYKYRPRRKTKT
Technique: protein-binding microarray
Molecule type: double-stranded DNA, one strand shown
Matrix: in vitro
Tested at: not given
Notes: k-mer, scored over probes, only values ≥0.25
Reading: higher = stronger binding
Quantity: E-score
Sequence = AATTTTA; value = 0.283
Sequence = AATTCAA; value = 0.46
Sequence = CACAATC; value = 0.28
Sequence = ACAATCG; value = 0.371

Block 3
Target: Sal-like protein 4, full length isoform A (SALL4, Homo sapiens, UniProt Q9UJQ4, residues 1-1053)
Sequence of UniProt Q9UJQ4 (whole entry, looked up): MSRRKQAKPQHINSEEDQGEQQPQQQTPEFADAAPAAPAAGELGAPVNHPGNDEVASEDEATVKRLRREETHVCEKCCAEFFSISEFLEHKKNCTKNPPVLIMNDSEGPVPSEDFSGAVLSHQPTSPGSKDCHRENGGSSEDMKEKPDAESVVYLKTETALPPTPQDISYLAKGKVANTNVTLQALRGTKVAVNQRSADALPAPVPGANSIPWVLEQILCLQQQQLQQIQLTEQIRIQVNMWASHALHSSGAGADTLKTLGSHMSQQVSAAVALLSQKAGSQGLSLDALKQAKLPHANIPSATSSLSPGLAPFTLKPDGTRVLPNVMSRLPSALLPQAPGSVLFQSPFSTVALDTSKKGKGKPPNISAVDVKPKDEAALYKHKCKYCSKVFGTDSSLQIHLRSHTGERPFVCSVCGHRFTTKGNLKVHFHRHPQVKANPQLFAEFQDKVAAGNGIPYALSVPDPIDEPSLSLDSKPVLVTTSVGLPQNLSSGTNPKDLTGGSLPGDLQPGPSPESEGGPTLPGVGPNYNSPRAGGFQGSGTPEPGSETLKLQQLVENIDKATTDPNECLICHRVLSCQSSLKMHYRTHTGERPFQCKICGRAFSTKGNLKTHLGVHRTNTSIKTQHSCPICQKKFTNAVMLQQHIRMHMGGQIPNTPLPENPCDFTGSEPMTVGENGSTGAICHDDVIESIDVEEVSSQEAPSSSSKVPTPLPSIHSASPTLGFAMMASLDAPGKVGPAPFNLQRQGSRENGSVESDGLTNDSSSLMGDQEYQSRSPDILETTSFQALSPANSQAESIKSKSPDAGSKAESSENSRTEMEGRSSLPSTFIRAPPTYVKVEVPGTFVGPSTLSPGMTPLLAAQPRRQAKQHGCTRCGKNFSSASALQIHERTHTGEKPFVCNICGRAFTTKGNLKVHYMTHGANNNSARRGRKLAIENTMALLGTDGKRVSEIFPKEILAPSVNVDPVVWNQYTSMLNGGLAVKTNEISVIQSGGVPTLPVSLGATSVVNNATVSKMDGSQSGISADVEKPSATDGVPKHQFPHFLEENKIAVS
Technique: universal PBM
Molecule type: double-stranded DNA, one strand shown
Matrix: in vitro
Tested at: 600 nM
Notes: 8-mer, flanks averaged, mean of replicates
Reading: higher = stronger binding
Quantity: E-score
Sequence = CGCATCTA; value = 0.0467
Sequence = GGTTGGGA; value = -0.209
Sequence = ATAAGCAG; value = 0.167
Sequence = ATCCCCAG; value = -0.176
Sequence = AGGATAAG; value = -0.114
Sequence = CTAGAAAG; value = 0.0461
Sequence = CGGGGCAC; value = -0.26
Sequence = CTAGAACA; value = 0.0657
Sequence = CTGTGCCC; value = -0.236
Sequence = CGCAGGTA; value = -0.0842

Further values, each from its own experiment
Molecule = PhoQ, residues 284 288 289 292 302 303 NLCILV; target = PhoP, residues 12 14 15 18 19 LHATL (Escherichia coli, UniProt P23836); test = Sort-seq, measured: YFP reporter; system = E. coli; conditions = PhoQ-PhoP variant library, added: 10 µM Mg2+; how to read = baseline: high Mg2+ state, higher = stronger signaling; quantity = fold induction; value = 0.577

A few entries again (block 1):
Sequence = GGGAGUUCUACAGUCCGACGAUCAGUCCUGUGCUACACAUCGUAUGUACCGAAUCGGGGCCCCGGGCCCCGGGGCCCCGGAAAGUAUUAUGUUACGCCGUUCGGAUCUGCACUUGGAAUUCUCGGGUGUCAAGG; value = 0.374
Sequence = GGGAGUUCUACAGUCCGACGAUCUGGGGUAGACCAGUUCCAUGGCACUGAAUAUGUGUGCUGCCCUCAGACAAAGAUUAUUGGAUCUGUGUCAAAAGAAGAGGAAGAGGAAGAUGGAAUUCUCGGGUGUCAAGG; value = -1.26
Sequence = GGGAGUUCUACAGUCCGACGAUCCUGUGCUACACAUCGUAUGUACCGAAUCAAACCCCCCCAAAUUUUUUUAAAUUUUUUUAAAAAAGUAUUAUGUUACGCCGUUCGGAUCUGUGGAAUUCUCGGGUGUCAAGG; value = -0.0844
Sequence = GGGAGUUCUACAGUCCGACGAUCCCUGUGCUACACAUCGUAUGUACCGAAUCGGCCCCCCGGGGCCCCCCGGGCCCCCCGGGGAAAGUAUUAUGUUACGCCGUUCGGAUCUGCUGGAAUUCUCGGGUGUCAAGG; value = -0.826
